Experimental data gathered from unrelated publications.
Protocols differ between the studies behind these lines. Numbers after ± are the reported error. Values after ≈ are worked out from the molar mass of the structure shown.

Substance | test | test system | conditions | how to read | endpoint | value
O=C(c1ccc(F)c(F)c1Nc1ccc(I)cc1F)N1CC(O)([C@@H]2CCCCN2)C1 | refers to: retinal detachment | human patients | oral, dose not given, dose escalation, tablet, grade G1 |  | treatment-related adverse events | 0%
COC(=O)c1ccnc(-c2cc(C(=O)OC)ccn2)c1.O.[C-]#[O+].[C-]#[O+].[C-]#[O+].[Re+] | RP-HPLC C18 column, refers to: free diimine ligand | MeCN:water 40:60, 0.1% TFA | isocratic elution |  | capacity factor | 2.4
CC(C)c1nc(N(C)S(C)(=O)=O)nc(-c2ccc(F)cc2)c1/C=C/[C@@H](O)C[C@@H](O)CC(=O)O |  | human, plasma | oral, dose not given, 14 day washout, carryover, one subject | baseline: Cmax | pre-dose concentration | < 5%
CC[C@H](C)[C@H](NC(=O)[C@H](CCCCN)NC(=O)[C@H](CCCCN)NC(=O)[C@H](CC(C)C)NC(=O)[C@@H](NC(=O)[C@H](CCCCN)NC(=O)[C@H](C)NC(=O)[C@H](C)NC(=O)[C@@H](NC(=O)CNC(=O)[C@H](C)NC(=O)[C@@H](NC(=O)[C@@H](NC(=O)[C@@H]1CCCN1C(=O)[C@H](Cc1ccccc1)NC(=O)[C@@H](N)Cc1ccccc1)[C@@H](C)CC)C(C)C)C(C)C)C(C)C)C(=O)N[C@@H](Cc1ccccc1)C(=O)N[C@H]1CSSC[C@@H](C(=O)O)NC(=O)[C@H](CCCCN)NC(=O)[C@H](CCCCN)NC(=O)[C@H](CO)NC(=O)[C@H]([C@@H](C)CC)NC(=O)[C@H]([C@@H](C)O)NC1=O | haemolysis | horse erythrocytes | 2 h, 37 °C |  | HC10 | 8.28 µM
COc1ccc(C[C@@H]2NC(=O)[C@H]([C@@H](C)O)NC(=O)[C@@H]3[C@@H]4CCN3C(=O)[C@@H]3Cc5cn(c6ccc(F)cc56)CCCCCCN(Cc5ccc(cc5)CCNC(=O)[C@]5(C)CCCN5C2=O)C(=O)CCC(=O)N[C@@H](C)C(=O)N[C@H](CNC(=O)CCCCC[N+](C)(C)C)C(=O)N[C@@H](Cc2cccc(c2)CNC(=O)CO4)C(=O)N3)cc1 |  | fasted healthy humans, plasma | oral, 10 mg single dose, with 1800 mg Labrasol, geometric mean |  | AUC(0-t) | 0.235 µM·h
CSCC[C@@H]1NC(=O)[C@H](CC(=O)O)NC(=O)CNC(=O)[C@H](CCCNC(=N)N)NC(=O)[C@H](C)NC(=O)[C@H](CCC(=O)O)NC(=O)[C@H](CCCNC(=N)N)NC(=O)[C@@H]2CSSC[C@@H]3NC(=O)[C@H](CO)NC(=O)[C@H]([C@@H](C)O)NC(=O)[C@@H]4CCCN4C(=O)[C@H](C)NC(=O)[C@H](Cc4c[nH]c5ccccc45)NC(=O)[C@H](CC(=O)O)NC(=O)CNC(=O)[C@H](CCCNC(=N)N)NC(=O)CNC(=O)[C@H](CCC(N)=O)NC(=O)[C@@H]4CCCN4C(=O)[C@@H](NC(=O)CNC(=O)C(C)F)CSSC[C@H](NC(=O)CNC(=O)[C@H](C)NC(=O)[C@H](CC(C)C)NC(=O)[C@H](CSSC[C@@H](C(=O)NCC(N)=O)NC(=O)[C@H]([C@@H](C)O)NC(=O)[C@H](CCCNC(=N)N)NC(=O)[C@@H]4CCCN4C1=O)NC(=O)[C@H](CC(=O)O)NC(=O)[C@H](CO)NC(=O)[C@H](CC(=O)O)NC(=O)[C@H](CCC(N)=O)NC(=O)[C@H](CO)NC3=O)C(=O)N[C@@H](C(C)C)C(=O)N2 (stereo partly shown) [fluorine-18 labelled] |  | nude mice U-87 MG xenograft, intestine | intravenous, 2.5 h |  | tissue uptake | 0.48 ± 0.09 %ID/g
O[C@H]1CCCN[C@@H]1CCCn1cnc2c(Cl)c(Cl)ccc21 |  | healthy volunteers, urine | oral, 600 mg capsule single, geometric mean |  | renal clearance (0-72 h) | 276 mL/min
CCCCCCCCCC[N+](C)(C)Cc1ccccc1 | in vitro-in vivo extrapolation | human |  |  | hepatic clearance | 2.31 mL/h/g liver
O=[N+]([O-])CCO |  | rabbit cornea ex vivo | 100 mM, 30 to 120 min, 37 °C, intact epithelium |  | apparent permeability | 43.3 ×10⁻⁶ cm/s
CC(C)c1nc(CN(C)C(=O)N[C@H](C(=O)N[C@@H](Cc2ccccc2)C[C@H](O)[C@H](Cc2ccccc2)NC(=O)OCc2cncs2)C(C)C)cs1 |  | healthy human volunteers, plasma | oral, dose not given, alone, pravastatin interaction study |  | AUC(0-24) | 4420 ng·h/mL
CN[C@@](C)(C[18F])C(=O)O |  | SCID mouse MDA-MB-468 xenograft, muscle | 30 min, post injection |  | tissue uptake | 1.2 ± 0.3 %ID/g
CS(=O)(=O)CCCn1c(Cn2c(=O)n(CC(F)(F)F)c3ccncc32)cc2cc(Cl)ccc21 |  | RSV-infected infants | concentration not given, mid-high dose cohort |  | patients with high MCH | 0%
Oc1cccc2ccccc12 | fish short-term reproduction | Oryzias latipes, female, water, flow-through | 80.0 µg/L, end of exposure |  | body length | 39.3 ± 0.3 mm
COc1ccc(-c2cc(=O)c3c(OC)c(OC)c(OC)cc3o2)cc1 |  | C57BL/6 mouse, male, liver | oral, 1% w/w in diet, 6 weeks, orange peel extract diet | baseline: content in orange peel | tissue to peel content ratio | 0.035%
Cc1cccc(Nc2ccc3c(c2)C(c2ccccc2F)=NC(C)C(=O)N3)c1 (stereo not shown) | shake flask | PBS | 24 h, pH 7.4 |  | solubility | 3.52 µM (≈ 1.31 µg/mL)
COC(=O)N[C@H](C(=O)N1CCC[C@H]1C(=O)Nc1ccc([C@@H]2CC[C@@H](c3ccc(NC(=O)[C@@H]4CCCN4C(=O)[C@@H](NC(=O)OC)C(C)C)cc3)N2c2ccc(C(C)(C)C)cc2)cc1)C(C)C |  | healthy human volunteers, plasma | oral, dose not given, alone, pravastatin interaction study |  | AUC(0-24) | 1020 ng·h/mL

Substance | test | test system | conditions | how to read | endpoint | value
CC[C@H](C)[C@H](NC(=O)[C@H](Cc1ccccc1)NC(=O)[C@H](CC(=O)O)NC(=O)[C@H](CCCNC(=N)N)NC(=O)[C@H](Cc1ccccc1)NC(=O)[C@H](Cc1ccccc1)NC(=O)[C@H](CCCCN)NC(=O)[C@H](CO)NC(=O)[C@H](CC(C)C)NC(=O)[C@H](CCCNC(=N)N)NC(=O)[C@H](CCSC)NC(=O)[C@@H](N)CCC(=O)O)C(=O)N[C@@H](CC(C)C)C(=O)N[C@@H](CCC(N)=O)C(=O)N[C@@H](CCCNC(=N)N)C(=O)N[C@@H](CCCCN)C(=O)N[C@@H](CCCCN)C(=O)O |  | rabbit erythrocytes | concentration not given, 30 min, 37 °C | baseline: Triton X-100 | hemolysis | not toxic
CNC(=O)c1ccc(-c2cnn3ccc(C(=O)N(C)c4ccc(Cl)c(C(=O)OC)c4)cc23)cc1 |  | Wistar rats, both sexes, plasma | oral, 50 mg/kg/day, day 14, 2-week toxicology study |  | AUC(0-8 h) | 2.77 ng·h/mL
Cc1cc(C(C#N)c2ccc(Cl)cc2)c(Cl)cc1NC(=O)c1cc(I)cc(I)c1O (stereo not shown) |  | parasitized Corriedale lambs, plasma | oral, 10 mg/kg |  | mean residence time | 490 ± 111 h
CCCCCCCCCC(=O)N[C@@H](Cc1c[nH]c2ccccc12)C(=O)N[C@H](CC(N)=O)C(=O)N[C@@H](CC(=O)O)C(=O)N[C@@H]1C(=O)NCC(=O)N[C@@H](CCCN)C(=O)N[C@@H](CC(=O)O)C(=O)N[C@H](C)C(=O)N[C@@H](CC(=O)O)C(=O)NCC(=O)N[C@H](CO)C(=O)N[C@@H]([C@H](C)CC(=O)O)C(=O)N[C@@H](CC(=O)c2ccccc2N)C(=O)O[C@@H]1C | HPLC | rat, skin tissue | subcutaneous, 50 mg/kg, 12 h, single dose, detection limit 0.075 µg/mL |  | skin tissue concentration | not detected
CC[C@H](C)[C@H](NC(=O)[C@@H](N)CCCNC(=N)N)C(=O)N[C@H](C(=O)N1CCC[C@H]1C(=O)N[C@@H](C)C(N)=O)C(C)C |  | human, plasma | intravenous, 3 mg/kg, single dose, healthy volunteers |  | MRT | 3.6 min
CC(C)C[C@H](NC(=O)[C@H](CCC(=O)O)NC(=O)[C@H](CCC(=O)O)NC(=O)[C@H](CC(=O)O)NC(=O)[C@H](CCC(=O)O)NC(=O)[C@H](CCC(=O)O)NC(=O)[C@H](CCC(=O)O)NC(=O)[C@@H](N)CC(=O)O)C(=O)O |  | rat, CSF | intranasal, 5.5 mg/kg, 180 min, below quantification limit, estimated |  | concentration | 0.225 ng/mL
[123I]c1cncc(OC[C@@H]2CCN2)c1 | SPECT | human, occipital lobe | intravenous bolus plus infusion, 5.2 mCi | baseline: tissue over plasma | tissue/plasma ratio | 17.1
CC(=O)N[C@H](CCCCNC(=O)C(C)F)C(=O)N[C@@H](CS)C(=O)N[C@@H](CS)C(=O)N[C@@H](CCC(=O)O)C(=O)N[C@@H](Cc1c[nH]cn1)C(=O)N[C@H](Cc1ccccc1)C(=O)N[C@@H](CCCNC(=N)N)C(=O)N[C@@H](Cc1c[nH]c2ccccc12)C(=O)N[C@@H](CS)C(=O)N[C@@H](CCCNC(=N)N)C(=O)N1CCC[C@H]1C(=O)N[C@H](C(N)=O)C(C)C (stereo partly shown) [fluorine-18 labelled] |  | C57BL/6 mice, male, B16-F10 tumour, kidney | intravenous, 4 h |  | tissue uptake | 4.41 ± 0.78 %ID/g
CC[C@H](C)CCCCC(=O)N[C@@H](CCN)C(=O)N[C@H](C(=O)N[C@@H](CCN)C(=O)N[C@H]1CCNC(=O)[C@H]([C@@H](C)O)NC(=O)[C@H](CCN)NC(=O)[C@H](CCN)NC(=O)[C@H](CC(C)C)NC(=O)[C@@H](Cc2ccccc2)NC(=O)[C@H](CCN)NC1=O)[C@@H](C)O |  | ND4 Swiss Webster mouse, female, serum | intravenous, 3 mg/kg, aqueous solution |  | clearance | 13.2 mL/min/kg
eremomycin pyrrolidide |  | CBA mouse | intravenous, single bolus in 5% glucose |  | LD50 | 248 mg/kg
CCCCCCCCCCCCCC[N+](C)(C)CCCCCCCCCCCCCC | substrate depletion | human liver microsomes | 0.5 µM, 0 to 3 h, 37 °C, together with: NADPH |  | intrinsic clearance | 0.164 mL/h/mg protein
CCN1CCN(Cc2ccc(Nc3ncc(F)c(-c4cc(F)c5nc(C)n(C(C)C)c5c4)n3)nc2)CC1 |  | chick embryo, chorioallantoic membrane | topical, 5 d, ungrafted |  | LD50 | > 1 mM
CCCCC/C=C/C=C1/C(=O)C=C[C@@H]1C/C=C\CCCC(=O)O | cell viability, MTT | mouse lung slices | 48 h |  | CC50 | 21.7 µM
triclabendazole sulfoxide |  | human liver mitochondrial fraction | 1 µM, 30 min |  | metabolised fraction | 0%
O=C(NC1CCNCC1)c1n[nH]cc1NC(=O)c1c(Cl)cccc1Cl | ECG, Bazett correction | patients | intravenous, dose not given |  | QTc increase | < 30 ms

Some of these lines once more:
Substance | test | test system | conditions | how to read | endpoint | value
Cc1cccc(Nc2ccc3c(c2)C(c2ccccc2F)=NC(C)C(=O)N3)c1 (stereo not shown) | shake flask | PBS | 24 h, pH 7.4 |  | solubility | 3.52 µM (≈ 1.31 µg/mL)
triclabendazole sulfoxide |  | human liver mitochondrial fraction | 1 µM, 30 min |  | metabolised fraction | 0%
CC[C@H](C)[C@H](NC(=O)[C@H](CCCCN)NC(=O)[C@H](CCCCN)NC(=O)[C@H](CC(C)C)NC(=O)[C@@H](NC(=O)[C@H](CCCCN)NC(=O)[C@H](C)NC(=O)[C@H](C)NC(=O)[C@@H](NC(=O)CNC(=O)[C@H](C)NC(=O)[C@@H](NC(=O)[C@@H](NC(=O)[C@@H]1CCCN1C(=O)[C@H](Cc1ccccc1)NC(=O)[C@@H](N)Cc1ccccc1)[C@@H](C)CC)C(C)C)C(C)C)C(C)C)C(=O)N[C@@H](Cc1ccccc1)C(=O)N[C@H]1CSSC[C@@H](C(=O)O)NC(=O)[C@H](CCCCN)NC(=O)[C@H](CCCCN)NC(=O)[C@H](CO)NC(=O)[C@H]([C@@H](C)CC)NC(=O)[C@H]([C@@H](C)O)NC1=O | haemolysis | horse erythrocytes | 2 h, 37 °C |  | HC10 | 8.28 µM
CC(C)C[C@H](NC(=O)[C@H](CCC(=O)O)NC(=O)[C@H](CCC(=O)O)NC(=O)[C@H](CC(=O)O)NC(=O)[C@H](CCC(=O)O)NC(=O)[C@H](CCC(=O)O)NC(=O)[C@H](CCC(=O)O)NC(=O)[C@@H](N)CC(=O)O)C(=O)O |  | rat, CSF | intranasal, 5.5 mg/kg, 180 min, below quantification limit, estimated |  | concentration | 0.225 ng/mL
